Published values collected from several papers.
Parts stem from different laboratories: compare values within a part only.
UniProt Q9Y2U5, sequence (whole entry, looked up): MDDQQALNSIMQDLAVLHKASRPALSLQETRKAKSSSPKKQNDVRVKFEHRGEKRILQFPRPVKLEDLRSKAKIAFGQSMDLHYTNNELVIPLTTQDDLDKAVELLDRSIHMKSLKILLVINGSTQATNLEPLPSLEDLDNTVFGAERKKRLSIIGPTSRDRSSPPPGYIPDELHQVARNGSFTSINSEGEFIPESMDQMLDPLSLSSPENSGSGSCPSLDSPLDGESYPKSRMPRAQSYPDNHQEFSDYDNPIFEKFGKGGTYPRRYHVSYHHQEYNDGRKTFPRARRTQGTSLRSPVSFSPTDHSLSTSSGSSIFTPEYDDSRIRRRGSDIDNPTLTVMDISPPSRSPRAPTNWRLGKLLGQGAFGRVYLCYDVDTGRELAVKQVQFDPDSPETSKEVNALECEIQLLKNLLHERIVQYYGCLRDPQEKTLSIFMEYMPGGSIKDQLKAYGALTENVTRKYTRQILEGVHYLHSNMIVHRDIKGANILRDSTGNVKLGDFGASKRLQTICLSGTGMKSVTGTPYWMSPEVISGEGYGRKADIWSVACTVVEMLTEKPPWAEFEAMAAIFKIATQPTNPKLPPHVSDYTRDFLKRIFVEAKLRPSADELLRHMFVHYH
UniProt Q96NX5, sequence (whole entry, looked up): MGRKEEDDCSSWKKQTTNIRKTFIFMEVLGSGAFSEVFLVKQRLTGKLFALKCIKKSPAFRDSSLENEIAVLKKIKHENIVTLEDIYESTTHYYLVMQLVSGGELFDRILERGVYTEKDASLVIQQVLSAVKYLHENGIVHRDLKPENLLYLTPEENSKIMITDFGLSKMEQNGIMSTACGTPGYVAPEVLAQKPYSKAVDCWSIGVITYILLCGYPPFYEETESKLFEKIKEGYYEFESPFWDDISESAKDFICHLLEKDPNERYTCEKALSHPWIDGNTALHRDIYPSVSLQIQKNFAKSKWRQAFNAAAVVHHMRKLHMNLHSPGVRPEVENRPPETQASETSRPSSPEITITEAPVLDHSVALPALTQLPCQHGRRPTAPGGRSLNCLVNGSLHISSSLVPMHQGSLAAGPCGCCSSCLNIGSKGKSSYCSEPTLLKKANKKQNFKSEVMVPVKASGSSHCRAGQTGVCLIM
UniProt Q96BR1, sequence (whole entry, looked up): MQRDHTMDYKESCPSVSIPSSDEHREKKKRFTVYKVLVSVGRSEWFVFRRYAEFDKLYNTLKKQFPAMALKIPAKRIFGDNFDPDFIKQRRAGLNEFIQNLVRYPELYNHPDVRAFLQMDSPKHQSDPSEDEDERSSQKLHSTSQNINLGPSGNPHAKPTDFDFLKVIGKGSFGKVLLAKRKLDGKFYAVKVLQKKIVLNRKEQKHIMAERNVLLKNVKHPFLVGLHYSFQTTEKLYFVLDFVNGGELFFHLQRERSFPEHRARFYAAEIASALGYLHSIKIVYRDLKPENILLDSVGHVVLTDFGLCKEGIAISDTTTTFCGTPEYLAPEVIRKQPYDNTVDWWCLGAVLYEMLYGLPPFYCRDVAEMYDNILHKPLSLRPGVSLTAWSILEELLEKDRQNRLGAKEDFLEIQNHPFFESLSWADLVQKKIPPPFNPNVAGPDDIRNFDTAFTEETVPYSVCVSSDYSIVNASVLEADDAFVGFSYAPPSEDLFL
UniProt P34947, sequence (whole entry, looked up): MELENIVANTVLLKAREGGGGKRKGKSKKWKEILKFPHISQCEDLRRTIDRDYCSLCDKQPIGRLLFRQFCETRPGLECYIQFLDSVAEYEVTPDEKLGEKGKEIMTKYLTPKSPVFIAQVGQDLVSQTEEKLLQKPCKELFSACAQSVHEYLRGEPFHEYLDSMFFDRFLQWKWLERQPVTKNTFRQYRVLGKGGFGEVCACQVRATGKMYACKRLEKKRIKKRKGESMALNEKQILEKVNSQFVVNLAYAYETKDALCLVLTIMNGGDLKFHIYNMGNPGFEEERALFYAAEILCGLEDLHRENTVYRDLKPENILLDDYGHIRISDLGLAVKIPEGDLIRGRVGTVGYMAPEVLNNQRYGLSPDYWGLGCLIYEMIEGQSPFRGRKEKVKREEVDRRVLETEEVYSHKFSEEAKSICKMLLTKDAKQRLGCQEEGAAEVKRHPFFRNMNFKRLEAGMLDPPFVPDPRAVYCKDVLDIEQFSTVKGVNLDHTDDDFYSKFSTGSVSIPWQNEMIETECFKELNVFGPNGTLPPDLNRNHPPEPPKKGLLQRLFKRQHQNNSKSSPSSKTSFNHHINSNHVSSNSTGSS
UniProt Q16513, sequence (whole entry, looked up): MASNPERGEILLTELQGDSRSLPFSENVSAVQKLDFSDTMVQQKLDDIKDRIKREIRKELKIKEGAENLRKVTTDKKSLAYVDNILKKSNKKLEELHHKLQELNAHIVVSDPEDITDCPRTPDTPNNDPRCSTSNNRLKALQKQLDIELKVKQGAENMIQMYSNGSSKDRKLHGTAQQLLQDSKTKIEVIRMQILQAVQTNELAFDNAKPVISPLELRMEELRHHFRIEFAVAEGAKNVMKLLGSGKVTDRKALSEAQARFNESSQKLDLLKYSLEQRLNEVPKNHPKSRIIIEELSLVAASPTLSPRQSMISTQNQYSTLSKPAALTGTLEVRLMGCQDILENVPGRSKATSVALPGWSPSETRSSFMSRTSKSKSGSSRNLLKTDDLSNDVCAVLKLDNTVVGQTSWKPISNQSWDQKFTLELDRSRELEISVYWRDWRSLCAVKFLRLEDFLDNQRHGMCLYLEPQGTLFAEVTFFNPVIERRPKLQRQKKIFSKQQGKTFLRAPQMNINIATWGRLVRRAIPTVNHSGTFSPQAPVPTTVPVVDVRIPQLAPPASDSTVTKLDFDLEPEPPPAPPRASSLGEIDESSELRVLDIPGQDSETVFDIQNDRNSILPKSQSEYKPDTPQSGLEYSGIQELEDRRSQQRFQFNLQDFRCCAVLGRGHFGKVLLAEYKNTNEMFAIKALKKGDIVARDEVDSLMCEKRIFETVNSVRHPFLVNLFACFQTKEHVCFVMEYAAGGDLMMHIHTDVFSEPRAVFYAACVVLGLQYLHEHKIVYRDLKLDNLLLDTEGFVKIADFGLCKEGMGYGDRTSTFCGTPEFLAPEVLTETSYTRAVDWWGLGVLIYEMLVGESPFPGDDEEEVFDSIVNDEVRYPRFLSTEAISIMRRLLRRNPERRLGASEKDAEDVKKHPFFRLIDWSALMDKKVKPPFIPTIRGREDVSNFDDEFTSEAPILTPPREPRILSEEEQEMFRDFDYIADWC
UniProt P07949, sequence (whole entry, looked up): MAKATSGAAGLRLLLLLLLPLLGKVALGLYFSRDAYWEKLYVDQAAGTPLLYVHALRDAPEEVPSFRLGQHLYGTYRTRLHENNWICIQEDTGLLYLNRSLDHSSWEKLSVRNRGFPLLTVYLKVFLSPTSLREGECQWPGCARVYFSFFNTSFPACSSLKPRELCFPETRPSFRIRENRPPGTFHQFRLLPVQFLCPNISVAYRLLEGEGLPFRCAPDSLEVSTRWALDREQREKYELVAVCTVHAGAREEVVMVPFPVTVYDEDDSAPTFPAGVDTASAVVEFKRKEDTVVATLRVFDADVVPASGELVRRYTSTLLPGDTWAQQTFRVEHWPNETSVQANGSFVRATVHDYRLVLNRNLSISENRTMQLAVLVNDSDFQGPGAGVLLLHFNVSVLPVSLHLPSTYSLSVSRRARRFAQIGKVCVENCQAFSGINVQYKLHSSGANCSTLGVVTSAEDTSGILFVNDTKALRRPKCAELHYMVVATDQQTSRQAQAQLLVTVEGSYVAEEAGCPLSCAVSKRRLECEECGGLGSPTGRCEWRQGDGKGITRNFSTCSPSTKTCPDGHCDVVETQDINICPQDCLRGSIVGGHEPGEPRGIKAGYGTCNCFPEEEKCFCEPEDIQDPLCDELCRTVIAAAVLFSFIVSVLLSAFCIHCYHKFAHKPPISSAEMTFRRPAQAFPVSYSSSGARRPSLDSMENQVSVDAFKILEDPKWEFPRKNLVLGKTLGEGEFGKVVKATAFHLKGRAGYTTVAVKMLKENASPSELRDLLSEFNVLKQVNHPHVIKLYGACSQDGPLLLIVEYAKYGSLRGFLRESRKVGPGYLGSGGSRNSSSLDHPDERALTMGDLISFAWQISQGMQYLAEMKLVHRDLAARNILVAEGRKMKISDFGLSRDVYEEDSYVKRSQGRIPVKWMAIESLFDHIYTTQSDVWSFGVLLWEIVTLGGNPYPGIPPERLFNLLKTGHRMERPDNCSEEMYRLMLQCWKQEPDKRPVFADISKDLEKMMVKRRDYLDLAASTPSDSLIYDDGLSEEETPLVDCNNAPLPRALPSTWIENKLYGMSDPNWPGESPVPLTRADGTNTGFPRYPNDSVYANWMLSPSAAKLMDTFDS

Block 1 — method: RNA Bind-n-Seq; molecule type: RNA; matrix: in vitro; concentration: 200 nM; setting: whole 134-nt RNA, ends assumed; with: 150 mM KCl; reference: input library; reading: higher = stronger binding
Target: Ras GTPase-activating protein-binding protein 1, full length (G3BP1, Homo sapiens, UniProt Q13283)
UniProt Q13283, sequence (whole entry, looked up): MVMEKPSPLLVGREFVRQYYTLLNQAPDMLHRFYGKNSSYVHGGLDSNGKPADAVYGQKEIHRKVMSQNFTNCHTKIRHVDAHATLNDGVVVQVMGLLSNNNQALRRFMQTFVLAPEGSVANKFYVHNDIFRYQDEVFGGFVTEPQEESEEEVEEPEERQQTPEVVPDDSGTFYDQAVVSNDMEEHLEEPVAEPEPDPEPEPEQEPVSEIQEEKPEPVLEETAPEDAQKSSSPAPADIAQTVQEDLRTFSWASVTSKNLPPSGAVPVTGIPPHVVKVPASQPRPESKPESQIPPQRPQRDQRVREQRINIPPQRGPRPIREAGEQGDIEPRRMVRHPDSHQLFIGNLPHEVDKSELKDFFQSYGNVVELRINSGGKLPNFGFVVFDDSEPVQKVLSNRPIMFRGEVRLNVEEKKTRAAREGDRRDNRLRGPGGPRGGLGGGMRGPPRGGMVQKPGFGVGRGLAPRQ
Shared flanks, not repeated: GGGAGUUCUACAGUCCGACGAUC … UGGAAUUCUCGGGUGUCAAGG
Sequence	log2 enrichment
CCUGUGCUACACAUCGUAUGUACCGAAUCAAAUUUUUUUAAACCCCCAAACCCCCCCAAAAAAGUAUUAUGUUACGCCGUUCGGAUCUGC	-0.145
GCAGGAAGUAAAAACAAAUGGAAAUGCUUCGGAUAGUGGCAGGGGUGGGGGUUUCUAAGGAAAGGGUGGGAUGGGAGUGGGUAAAGAGUU	0.834
UCCUGUGCUACACAUCGUAUGUACCGAAUCGGGUUUUUUUGGGAAAAAGGGAAAAAGGGAAAGUAUUAUGUUACGCCGUUCGGAUCUGCA	-0.499
UCCUGUGCUACACAUCGUAUGUACCGAAUCGGGUUUUUUGGUUUUUUGGGUUUUUUGGGAAAGUAUUAUGUUACGCCGUUCGGAUCUGCA	-0.695
UGGGAGGUGGAUUUUGUUUAUUUUUUUAGCUCAUUUCCAGGGGUGGGAAUUUUUUUUUAAUAUGUGUCAUGGAUAAAGUUGUUUUUGAAA	0.592
UCCUGUGCUACACAUCGUAUGUACCGAAUCGGGAAAAAAGGGGAAAAAAGGAAAAAAGGGAAAGUAUUAUGUUACGCCGUUCGGAUCUGC	-0.286
AGUCCUGUGCUACACAUCGUAUGUACCGAAUCGGGUUUUUUUGGGUUUUUGGGUGGGAAAGUAUUAUGUUACGCCGUUCGGAUCUGCACU	-0.265
GCAGGAAGUAAAAACAAAUGGAAAUGCUUCGGAUAGUGGCAGGGGUGGGGGUUGCUAAGGAAAGGAAAGGAUGGGAGUGGGUAAAGAGUU	0.584

Block 2 — effect on: cell-free assay; method: competition with immobilised ligand; concentration: 1 µM
SMILES: N#Cc1ccc(Nc2ccc3[nH]c(=O)[nH]c3c2)c(Cl)c1
target	remaining binding
SRMS (Homo sapiens, UniProt Q9H3Y6)	100%
Tyrosine-protein kinase ABL1, non-phosphorylated (ABL1, Homo sapiens, UniProt P00519, H396P)	93%
SGK3 (Homo sapiens, UniProt Q96BR1)	100%
Ribosomal protein S6 kinase alpha-2, C-terminal kinase domain (RPS6KA2, Homo sapiens, UniProt Q15349)	100%
KIT (Homo sapiens, UniProt P10721, A829P)	100%
PIKFYVE (Homo sapiens, UniProt Q9Y2I7)	82%
NTRK2 (Homo sapiens, UniProt Q16620)	100%
BMX (Homo sapiens, UniProt P51813)	100%
EPHB1 (Homo sapiens, UniProt P54762)	93%
MAP2K7 (Homo sapiens, UniProt O14733)	100%
TAOK1 (Homo sapiens, UniProt Q7L7X3)	97%
MYLK (Homo sapiens, UniProt Q15746)	96%

Block 3 — Compound: COc1cc2ncc(-c3ccccc3)nc2cc1OC; effect on: enzyme activity; action: inhibitor; concentration: 0.5 µM; reference: control
target	remaining activity
PKN2 (Homo sapiens, UniProt Q16513)	88.3%
MAPK10 (Homo sapiens, UniProt P53779)	90.3%
DMPK (Homo sapiens, UniProt Q09013)	103%
CDK7 (Homo sapiens, UniProt P50613)	109%
HIPK3 (Homo sapiens, UniProt Q9H422)	97.7%
PRKD1 (Homo sapiens, UniProt Q15139)	93.3%
PTK2B (Homo sapiens, UniProt Q14289)	85.9%
Cyclin-dependent kinase 2, with cyclin A (CDK2, Homo sapiens, UniProt P24941)	92.9%
MAP3K8 (Homo sapiens, UniProt P41279)	108%
Aurora kinase A (AURKA, Homo sapiens, UniProt O14965)	90.3%
GRK5 (Homo sapiens, UniProt P34947)	106%
ROCK2 (Homo sapiens, UniProt O75116)	96.1%
BRSK1 (Homo sapiens, UniProt Q8TDC3)	102%
SLK (Homo sapiens, UniProt Q9H2G2)	97.3%
CAMK1D (Homo sapiens, UniProt Q8IU85)	96.6%
EGFR (Homo sapiens, UniProt P00533)	82.9%
RET (Homo sapiens, UniProt P07949)	84.4%
CAMK1G (Homo sapiens, UniProt Q96NX5)	95.1%
NTRK3 (Homo sapiens, UniProt Q16288)	89.1%
MAP3K2 (Homo sapiens, UniProt Q9Y2U5)	92.5%
NEK9 (Homo sapiens, UniProt Q8TD19)	93.5%
CSNK2A2 (Homo sapiens, UniProt P19784)	98.3%
ROS1 (Homo sapiens, UniProt P08922)	100%
DYRK4 (Homo sapiens, UniProt Q9NR20)	112%

Block 4 — method: aptamer microarray, sandwich; molecule type: DNA with 2'F-ANA; matrix: in vitro; concentration: 200 nM; with: Cy3 exosite-II aptamer, 400 nM; reading: higher = stronger binding; sequence: GGTTGGTGTGGTTGG
Target: Prothrombin, mature alpha-thrombin (F2, Homo sapiens, UniProt P00734)
Setting: whole 15-mer aptamer, many near background
Modification	mean fluorescence intensity [a.u.]
2'F-ANA at 1 2 5 6 8 11 12 14	48.9
2'F-ANA at 1 3 7 8 10 11 15	81.3
2'F-ANA at 2 4 5 10 12 13 14	46.6
2'F-ANA at 8 11 13	498
2'F-ANA at 2 3 7 8 10 11 12 13 14	287
2'F-ANA at 1 2 4 5 7 8 9 11 12 13 14	45.8
2'F-ANA at 1 2 3 5 7 9 11 12 13 15	67.5
2'F-ANA at 1 2 5 12 13 14	48.7

Repeated from above (block 4):
Modification	mean fluorescence intensity [a.u.]
2'F-ANA at 1 2 5 12 13 14	48.7
2'F-ANA at 1 2 5 6 8 11 12 14	48.9
2'F-ANA at 2 4 5 10 12 13 14	46.6
2'F-ANA at 1 2 3 5 7 9 11 12 13 15	67.5
2'F-ANA at 2 3 7 8 10 11 12 13 14	287
2'F-ANA at 1 3 7 8 10 11 15	81.3
2'F-ANA at 8 11 13	498
2'F-ANA at 1 2 4 5 7 8 9 11 12 13 14	45.8
